Measured values collected from several papers.
Each line is one published result; not all experiments were run side by side.
Tested at: 1 µM
Chain of UniProt P41240 (whole entry, looked up): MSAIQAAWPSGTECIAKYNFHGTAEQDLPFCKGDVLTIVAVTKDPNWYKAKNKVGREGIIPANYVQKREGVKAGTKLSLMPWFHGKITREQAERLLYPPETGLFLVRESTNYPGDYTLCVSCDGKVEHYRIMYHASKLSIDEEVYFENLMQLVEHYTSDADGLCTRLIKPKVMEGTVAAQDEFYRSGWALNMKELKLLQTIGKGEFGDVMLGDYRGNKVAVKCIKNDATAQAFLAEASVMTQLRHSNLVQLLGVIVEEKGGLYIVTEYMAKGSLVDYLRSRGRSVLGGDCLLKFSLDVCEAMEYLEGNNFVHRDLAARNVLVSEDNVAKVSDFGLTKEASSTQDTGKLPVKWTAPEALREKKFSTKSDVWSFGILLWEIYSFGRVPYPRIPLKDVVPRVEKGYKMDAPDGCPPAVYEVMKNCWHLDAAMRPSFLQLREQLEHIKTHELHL
Chain of UniProt P42681 (whole entry, looked up): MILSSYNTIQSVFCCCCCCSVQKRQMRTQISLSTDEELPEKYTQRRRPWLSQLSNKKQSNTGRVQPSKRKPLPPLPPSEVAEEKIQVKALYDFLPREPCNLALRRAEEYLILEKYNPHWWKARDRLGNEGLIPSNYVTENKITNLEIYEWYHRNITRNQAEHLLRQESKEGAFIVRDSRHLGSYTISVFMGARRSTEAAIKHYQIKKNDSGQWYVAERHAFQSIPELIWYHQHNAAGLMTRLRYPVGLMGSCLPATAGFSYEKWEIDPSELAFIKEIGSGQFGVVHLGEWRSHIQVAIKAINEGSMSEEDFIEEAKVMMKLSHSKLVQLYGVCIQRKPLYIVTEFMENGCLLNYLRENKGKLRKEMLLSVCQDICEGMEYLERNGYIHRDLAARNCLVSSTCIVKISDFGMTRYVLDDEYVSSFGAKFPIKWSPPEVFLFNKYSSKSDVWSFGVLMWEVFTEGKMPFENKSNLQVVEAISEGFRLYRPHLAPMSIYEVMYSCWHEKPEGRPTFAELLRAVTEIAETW
Chain of UniProt P25911 (whole entry, looked up): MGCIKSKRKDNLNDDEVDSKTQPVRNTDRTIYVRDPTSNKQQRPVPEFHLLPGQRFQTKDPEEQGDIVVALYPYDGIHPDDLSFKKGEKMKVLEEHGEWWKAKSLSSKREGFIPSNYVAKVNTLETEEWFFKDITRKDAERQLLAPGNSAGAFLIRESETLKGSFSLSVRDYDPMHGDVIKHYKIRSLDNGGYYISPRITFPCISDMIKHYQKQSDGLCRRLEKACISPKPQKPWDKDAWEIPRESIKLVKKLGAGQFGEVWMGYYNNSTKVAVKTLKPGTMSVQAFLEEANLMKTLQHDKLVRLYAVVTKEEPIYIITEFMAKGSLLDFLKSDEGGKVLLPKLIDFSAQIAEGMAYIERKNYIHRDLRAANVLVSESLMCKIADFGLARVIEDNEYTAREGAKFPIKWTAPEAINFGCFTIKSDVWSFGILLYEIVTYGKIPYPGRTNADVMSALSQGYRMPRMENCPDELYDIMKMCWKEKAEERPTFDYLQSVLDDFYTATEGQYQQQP
Chain of UniProt P15056 (whole entry, looked up): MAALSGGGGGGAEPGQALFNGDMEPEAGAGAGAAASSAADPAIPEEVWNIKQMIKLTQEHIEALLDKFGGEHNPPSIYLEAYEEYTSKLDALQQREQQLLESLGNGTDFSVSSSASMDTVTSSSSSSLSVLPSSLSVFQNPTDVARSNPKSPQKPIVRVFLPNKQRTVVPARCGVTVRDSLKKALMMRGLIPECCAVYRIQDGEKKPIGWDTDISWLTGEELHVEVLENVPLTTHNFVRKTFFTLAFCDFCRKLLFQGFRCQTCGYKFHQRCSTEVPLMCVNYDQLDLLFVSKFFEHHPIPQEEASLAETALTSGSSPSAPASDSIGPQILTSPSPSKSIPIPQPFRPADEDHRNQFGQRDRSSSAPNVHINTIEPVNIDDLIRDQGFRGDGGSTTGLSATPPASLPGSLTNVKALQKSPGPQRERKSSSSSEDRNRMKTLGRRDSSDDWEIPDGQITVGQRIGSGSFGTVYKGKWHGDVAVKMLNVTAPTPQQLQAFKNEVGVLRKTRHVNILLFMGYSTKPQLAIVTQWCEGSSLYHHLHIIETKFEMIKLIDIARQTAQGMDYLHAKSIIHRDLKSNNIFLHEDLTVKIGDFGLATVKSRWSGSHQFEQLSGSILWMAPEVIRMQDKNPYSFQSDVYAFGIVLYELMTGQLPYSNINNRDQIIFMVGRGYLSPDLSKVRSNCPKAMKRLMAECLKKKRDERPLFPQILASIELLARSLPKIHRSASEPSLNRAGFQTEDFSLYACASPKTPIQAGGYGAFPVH

CNc1ncc2c(/C=C/C(=O)N3CCC(OC)CC3)nn(Cc3cccc(C(F)(F)F)c3)c2n1 — remaining activity (CSK (Homo sapiens, UniProt P41240); enzyme activity, inhibitor, radiometric): 98%
C=CC(=O)N1CCC(COCC(=O)N2CCN(c3nc(-c4cnc(N)nc4C(F)F)nc(N4CCOC[C@@H]4C)n3)CC2)CC1 — remaining binding (TXK (Homo sapiens, UniProt P42681); binding, competition with immobilised ligand): 100%
Cc1cc([C@@H](C)Nc2ccccc2C(=O)O)c2nc(N3CCC(F)(F)CC3)c(C#N)c(=O)n2c1 — remaining binding (BRAF (Homo sapiens, UniProt P15056); binding, competition with immobilised ligand): 68%
COc1cc(-c2cncc3c2CN(C)Cc2cc(N4CCNCC4)ccc2-3)cc(OC)c1OC — remaining activity (Lyn (Mus musculus, UniProt P25911); enzyme activity, inhibitor): 44%

Some of these lines once more:
C=CC(=O)N1CCC(COCC(=O)N2CCN(c3nc(-c4cnc(N)nc4C(F)F)nc(N4CCOC[C@@H]4C)n3)CC2)CC1 — remaining binding (TXK (Homo sapiens, UniProt P42681); binding, competition with immobilised ligand): 100%
